Assay results collected from several papers.
A part holds a random share of what one study measured. Positions count from the first letter of the parent shown.
Chain of UniProt P51956 (whole entry, looked up): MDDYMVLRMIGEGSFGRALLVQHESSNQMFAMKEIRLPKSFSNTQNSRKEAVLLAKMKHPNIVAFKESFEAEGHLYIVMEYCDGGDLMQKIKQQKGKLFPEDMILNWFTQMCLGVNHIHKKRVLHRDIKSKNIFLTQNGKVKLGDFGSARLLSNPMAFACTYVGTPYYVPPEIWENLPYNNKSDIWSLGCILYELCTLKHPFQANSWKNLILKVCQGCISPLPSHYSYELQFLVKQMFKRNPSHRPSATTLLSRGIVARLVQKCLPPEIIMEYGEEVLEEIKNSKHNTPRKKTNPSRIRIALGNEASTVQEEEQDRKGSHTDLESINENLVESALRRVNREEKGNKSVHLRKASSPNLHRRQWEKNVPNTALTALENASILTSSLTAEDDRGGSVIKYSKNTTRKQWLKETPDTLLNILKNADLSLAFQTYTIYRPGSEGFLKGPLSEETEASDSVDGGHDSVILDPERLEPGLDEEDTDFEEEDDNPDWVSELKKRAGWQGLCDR

Set 1
Target: Interferon regulatory factor 5, full length, phosphomimetic (IRF5, Homo sapiens, UniProt Q13568-2, residues 1-514, K96S/S451D/S453D/S456D/S462D)
Method: protein-binding microarray
Molecule type: double-stranded DNA, one strand shown
Sample: in vitro
Tested at: 250 nM
Setting: 60-bp whole probe
Added: salmon DNA 0.4 mg/ml
Baseline: random background probes
Direction: higher = stronger binding
Constant ends, left off below: GCCTAGCAC … GTCTTGATTCGCTTGACGCTGCTG
For `TTAGGTGTCGGTATCGGTTAGTGCTAG`, the log fluorescence was 5.1 z-score.
The log fluorescence of `TCACTTCTCAATTAAAAACTGTGCTAG` is reported as 0.74 z-score.
`TTAGGTTTAGGTTCCGGTTAGTGCTAG` has a log fluorescence of 1.12 z-score.
The log fluorescence of `GACGGTTTCGGACTGGGGAAGTGCTAG` is reported as 4.5 z-score.
`GACGGACTGGGGTTTCGGGGCGTGCTA` gave a log fluorescence of 0.63 z-score.
`GACAGTTTCGGACTGGGGACGTGCTAG` gave a log fluorescence of 6.78 z-score.
For `TTAGAACTGAGACTGGGTTAGTGCTAG`, the log fluorescence was -0.137 z-score.
`TTGGATATCAGACTGGATTAGTGCTAG` has a log fluorescence of -0.0965 z-score.

Set 2
Variant: S104H
Target: ABI1, truncated, D143A, DHFR fusion (Arabidopsis thaliana)
Method: DHFR PCA, deep sequencing
Sample: yeast
Setting: methotrexate growth selection, single substitutions
Baseline: wild-type fitted maximum
Direction: higher = stronger binding
Starting sequence: PYL1, truncated, DHFR fusion (Arabidopsis thaliana); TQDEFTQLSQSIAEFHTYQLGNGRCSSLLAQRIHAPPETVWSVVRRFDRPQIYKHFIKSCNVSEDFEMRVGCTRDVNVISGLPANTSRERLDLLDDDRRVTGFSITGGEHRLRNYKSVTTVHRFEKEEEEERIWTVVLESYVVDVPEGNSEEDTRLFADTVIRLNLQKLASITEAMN
It gave 68.9% for “relative binding score” (added: (+)-ABA 200 µM).
For added: (+)-ABA 0.11 µM: “relative binding score” read -1.8%.
It gave -6.69% for “relative binding score” (added: (+)-ABA 0 µM).
The “relative binding score” was -8.25% (added: (+)-ABA 0.0091 µM).
added: (+)-ABA 4.8 µM — “relative binding score”: 10%.
The “relative binding score” was 85.2% (added: (+)-ABA 710 µM).

Set 3
Target: Transcriptional repressor CTCF (CTCF, Homo sapiens, UniProt P49711, residues 1-727, full length assumed)
Chain of UniProt P49711 (whole entry, looked up): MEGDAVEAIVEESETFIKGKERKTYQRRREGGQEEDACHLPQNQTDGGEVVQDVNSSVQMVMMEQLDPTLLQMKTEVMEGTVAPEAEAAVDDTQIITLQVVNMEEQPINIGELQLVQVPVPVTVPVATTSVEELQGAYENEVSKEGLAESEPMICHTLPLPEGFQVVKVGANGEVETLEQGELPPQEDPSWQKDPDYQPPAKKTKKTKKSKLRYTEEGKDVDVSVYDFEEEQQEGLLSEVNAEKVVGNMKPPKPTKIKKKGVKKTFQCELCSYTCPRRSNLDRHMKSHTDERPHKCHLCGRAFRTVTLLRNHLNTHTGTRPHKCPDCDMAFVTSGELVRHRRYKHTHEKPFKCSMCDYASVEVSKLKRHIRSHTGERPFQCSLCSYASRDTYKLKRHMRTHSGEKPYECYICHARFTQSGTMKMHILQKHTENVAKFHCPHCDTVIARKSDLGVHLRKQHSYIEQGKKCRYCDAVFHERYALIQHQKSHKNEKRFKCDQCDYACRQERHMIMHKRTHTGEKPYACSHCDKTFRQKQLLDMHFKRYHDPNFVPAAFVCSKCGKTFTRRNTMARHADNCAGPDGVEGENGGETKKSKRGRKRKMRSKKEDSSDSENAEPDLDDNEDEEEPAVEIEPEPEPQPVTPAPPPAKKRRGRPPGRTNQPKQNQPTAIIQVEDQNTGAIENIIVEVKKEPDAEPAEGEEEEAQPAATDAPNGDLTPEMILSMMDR
Method: protein-binding microarray
Molecule type: double-stranded DNA, one strand shown
Sample: in vitro
Tested at: not given
Setting: k-mer, scored over probes, only values ≥0.25
Direction: higher = stronger binding
With `ATATACAT` the E-score was 0.299.
For `CGCGGCGC`, the E-score was 0.318.
With `ATTATGTA` the E-score was 0.328.
`AACATTAT` has an E-score of 0.321.
For `CGCCGCAA`, the E-score was 0.277.
The E-score of `GTAATTAC` is reported as 0.295.
For `AGCGCCCC`, the E-score was 0.387.
`AATGAAAA` has an E-score of 0.287.

Further values, each from its own experiment
`CCOc1cc2ncnc(Nc3cccc(Br)c3)c2cc1OCC` gave a remaining activity of 100% (Serine/threonine-protein kinase Nek3 (NEK3, Homo sapiens, UniProt P51956); enzyme activity, inhibitor; 0.5 µM; baseline: control).

Repeated from above (set 1):
The log fluorescence of `TCACTTCTCAATTAAAAACTGTGCTAG` is reported as 0.74 z-score.
`GACGGACTGGGGTTTCGGGGCGTGCTA` gave a log fluorescence of 0.63 z-score.
`TTGGATATCAGACTGGATTAGTGCTAG` has a log fluorescence of -0.0965 z-score.
